Measurements collected from several papers.
A part holds a random share of what one study measured.
UniProt P11388, sequence (whole entry, looked up): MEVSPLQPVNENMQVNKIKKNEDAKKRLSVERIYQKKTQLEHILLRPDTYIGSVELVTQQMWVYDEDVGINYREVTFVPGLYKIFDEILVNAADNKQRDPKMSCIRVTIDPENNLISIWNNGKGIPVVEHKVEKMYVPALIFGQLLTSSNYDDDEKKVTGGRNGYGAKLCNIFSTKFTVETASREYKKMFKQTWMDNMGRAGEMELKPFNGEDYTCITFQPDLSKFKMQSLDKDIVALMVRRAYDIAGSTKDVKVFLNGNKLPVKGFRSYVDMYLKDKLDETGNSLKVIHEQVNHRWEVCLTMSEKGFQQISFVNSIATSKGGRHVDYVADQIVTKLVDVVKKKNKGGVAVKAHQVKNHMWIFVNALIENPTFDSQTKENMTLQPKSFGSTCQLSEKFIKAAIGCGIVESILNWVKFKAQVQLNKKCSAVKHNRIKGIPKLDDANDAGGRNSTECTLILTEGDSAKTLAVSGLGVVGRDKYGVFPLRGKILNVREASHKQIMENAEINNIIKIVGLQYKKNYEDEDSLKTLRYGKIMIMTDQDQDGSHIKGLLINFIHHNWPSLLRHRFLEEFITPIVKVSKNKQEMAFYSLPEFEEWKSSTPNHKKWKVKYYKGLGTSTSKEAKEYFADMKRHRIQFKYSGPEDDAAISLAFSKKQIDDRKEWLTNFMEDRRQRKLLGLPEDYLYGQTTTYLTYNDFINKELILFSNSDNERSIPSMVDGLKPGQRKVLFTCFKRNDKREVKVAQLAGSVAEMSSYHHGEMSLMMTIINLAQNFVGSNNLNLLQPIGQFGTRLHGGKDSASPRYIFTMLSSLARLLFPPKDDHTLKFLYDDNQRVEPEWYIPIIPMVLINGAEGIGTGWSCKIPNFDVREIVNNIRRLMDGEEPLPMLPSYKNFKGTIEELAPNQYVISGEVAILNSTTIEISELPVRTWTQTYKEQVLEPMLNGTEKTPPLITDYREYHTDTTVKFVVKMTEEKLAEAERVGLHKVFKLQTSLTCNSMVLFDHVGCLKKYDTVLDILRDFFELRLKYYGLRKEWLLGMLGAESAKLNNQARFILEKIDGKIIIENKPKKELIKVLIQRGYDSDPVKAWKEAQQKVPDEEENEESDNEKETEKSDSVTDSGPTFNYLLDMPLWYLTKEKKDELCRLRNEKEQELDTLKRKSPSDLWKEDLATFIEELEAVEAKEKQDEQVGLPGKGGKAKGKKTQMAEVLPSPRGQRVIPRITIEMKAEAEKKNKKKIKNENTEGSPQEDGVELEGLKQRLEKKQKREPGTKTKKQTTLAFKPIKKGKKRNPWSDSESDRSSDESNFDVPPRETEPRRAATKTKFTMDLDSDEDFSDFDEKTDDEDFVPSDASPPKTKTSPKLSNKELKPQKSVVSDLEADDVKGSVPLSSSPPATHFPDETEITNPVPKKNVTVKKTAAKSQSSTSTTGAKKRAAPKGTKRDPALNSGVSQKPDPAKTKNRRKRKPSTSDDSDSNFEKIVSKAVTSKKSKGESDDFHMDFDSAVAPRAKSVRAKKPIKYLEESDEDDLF

Sample 1 — species: healthy volunteers; notes: single ascending dose; baseline: placebo; measurement: adaptive tracking performance
SMILES: Fc1ccccc1Cc1nc(-c2nc(C(F)(F)F)n[nH]2)cn2ccnc12
10 mg: -0.07%
1 mg: 0.48%
50 mg: -0.42%
30 mg: -0.26%

Mixed results
COC(=O)Nc1c(N)nc(-c2nn(Cc3ccccc3F)c3ncc(F)cc23)nc1N  AUC (human, plasma; oral, 2.5 mg, geometric mean, added: mefenamic acid): 1900 ng·h/mL
COC(=O)Nc1c(N)nc(-c2nn(Cc3ccccc3F)c3ncc(F)cc23)nc1N  seated DBP maximum decrease (healthy white men; dose not given, day 13, 312 h, LS mean difference, added: sildenafil 25 mg; baseline: placebo): -1.63 mmHg
COc1cc([C@@H]2c3cc4c(cc3[C@@H](O[C@@H]3O[C@@H]5CO[C@@H](C)O[C@H]5[C@H](O)[C@H]3O)[C@H]3COC(=O)[C@H]23)OCO4)cc(OC)c1O  linear DNA (TOP2A (Homo sapiens, UniProt P11388); DNA cleavage; 125 µM, replicate 2): 23.2%
N#CCC1CCN(c2nc(Nc3ccc(N4CCC(O)CC4)cc3)c3c(=O)[nH]ncc3n2)CC1  GIF level difference (vs placebo, Olink multiplex; human, serum; 80 mg, day 29, unit not given; baseline: placebo): 1.61
